Results of several laboratories.
Numbered parts are unrelated; each lists some results of a single study.
Chain of UniProt Q9SKN5 (whole entry, looked up): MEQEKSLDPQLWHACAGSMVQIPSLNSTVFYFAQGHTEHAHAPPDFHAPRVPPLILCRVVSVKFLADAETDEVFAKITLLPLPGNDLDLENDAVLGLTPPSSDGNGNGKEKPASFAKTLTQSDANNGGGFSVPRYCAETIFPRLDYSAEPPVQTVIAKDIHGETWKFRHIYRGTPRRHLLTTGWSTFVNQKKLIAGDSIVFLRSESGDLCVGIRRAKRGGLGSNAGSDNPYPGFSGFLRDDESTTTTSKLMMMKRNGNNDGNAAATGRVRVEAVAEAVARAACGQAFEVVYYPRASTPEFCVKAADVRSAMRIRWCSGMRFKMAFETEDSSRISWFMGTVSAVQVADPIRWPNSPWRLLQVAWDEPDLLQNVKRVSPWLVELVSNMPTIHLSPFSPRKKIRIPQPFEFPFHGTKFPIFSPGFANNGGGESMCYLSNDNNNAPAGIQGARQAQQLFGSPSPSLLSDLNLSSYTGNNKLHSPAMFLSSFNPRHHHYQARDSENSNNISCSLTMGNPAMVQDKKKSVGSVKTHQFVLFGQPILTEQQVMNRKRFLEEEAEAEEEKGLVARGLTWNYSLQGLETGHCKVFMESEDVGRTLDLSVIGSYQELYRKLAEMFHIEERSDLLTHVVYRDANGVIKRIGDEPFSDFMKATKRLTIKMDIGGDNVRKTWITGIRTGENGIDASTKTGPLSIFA
Chain of UniProt Q93WC4 (whole entry, looked up): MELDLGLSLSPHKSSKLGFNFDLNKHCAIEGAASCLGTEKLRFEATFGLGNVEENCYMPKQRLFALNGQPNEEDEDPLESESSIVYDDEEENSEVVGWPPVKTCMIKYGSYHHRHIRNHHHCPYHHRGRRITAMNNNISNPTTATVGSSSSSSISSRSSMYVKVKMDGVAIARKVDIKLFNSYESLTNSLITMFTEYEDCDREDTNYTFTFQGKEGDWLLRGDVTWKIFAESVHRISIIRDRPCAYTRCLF
Chain of UniProt Q9C966 (whole entry, looked up): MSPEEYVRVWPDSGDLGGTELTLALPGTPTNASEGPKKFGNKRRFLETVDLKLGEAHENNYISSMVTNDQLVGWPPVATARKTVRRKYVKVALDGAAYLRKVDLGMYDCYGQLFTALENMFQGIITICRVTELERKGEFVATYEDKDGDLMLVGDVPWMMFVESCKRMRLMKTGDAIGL
Chain of UniProt Q9ZPY6 (whole entry, looked up): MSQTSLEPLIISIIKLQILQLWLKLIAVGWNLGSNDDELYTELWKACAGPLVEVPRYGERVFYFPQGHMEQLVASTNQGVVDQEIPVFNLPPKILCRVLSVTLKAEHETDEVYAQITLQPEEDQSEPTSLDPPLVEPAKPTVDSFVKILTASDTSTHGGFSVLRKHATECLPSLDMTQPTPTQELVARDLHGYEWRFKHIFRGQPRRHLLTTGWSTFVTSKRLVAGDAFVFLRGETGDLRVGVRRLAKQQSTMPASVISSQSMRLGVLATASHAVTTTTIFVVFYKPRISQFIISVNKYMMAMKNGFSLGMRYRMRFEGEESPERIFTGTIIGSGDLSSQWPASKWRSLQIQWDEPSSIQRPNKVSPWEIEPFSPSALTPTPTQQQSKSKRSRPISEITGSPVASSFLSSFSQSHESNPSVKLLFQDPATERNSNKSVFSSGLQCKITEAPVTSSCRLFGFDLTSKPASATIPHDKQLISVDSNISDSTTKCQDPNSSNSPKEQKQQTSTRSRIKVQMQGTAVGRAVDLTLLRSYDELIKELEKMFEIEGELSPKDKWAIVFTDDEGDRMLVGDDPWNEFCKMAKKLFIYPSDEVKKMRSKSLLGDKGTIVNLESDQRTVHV
Chain of UniProt Q9XED8 (whole entry, looked up): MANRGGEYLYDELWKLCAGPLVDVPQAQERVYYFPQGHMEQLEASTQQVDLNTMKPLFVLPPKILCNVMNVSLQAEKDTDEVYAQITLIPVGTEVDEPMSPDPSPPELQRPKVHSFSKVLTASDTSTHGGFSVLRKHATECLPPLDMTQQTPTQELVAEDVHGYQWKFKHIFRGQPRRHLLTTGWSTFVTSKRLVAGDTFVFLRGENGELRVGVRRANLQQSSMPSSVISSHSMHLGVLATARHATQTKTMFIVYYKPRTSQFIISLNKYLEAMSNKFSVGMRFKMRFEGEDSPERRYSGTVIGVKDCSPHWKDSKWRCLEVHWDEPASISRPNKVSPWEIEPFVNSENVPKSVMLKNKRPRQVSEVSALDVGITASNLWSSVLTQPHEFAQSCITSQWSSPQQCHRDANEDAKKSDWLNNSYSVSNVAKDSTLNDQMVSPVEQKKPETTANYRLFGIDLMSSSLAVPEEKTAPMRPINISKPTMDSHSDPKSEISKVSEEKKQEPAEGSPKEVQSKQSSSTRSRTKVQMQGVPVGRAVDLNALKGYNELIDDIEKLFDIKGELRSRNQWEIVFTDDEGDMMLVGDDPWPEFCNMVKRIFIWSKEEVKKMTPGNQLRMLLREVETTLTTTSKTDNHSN

Study 1
Target: RNA binding protein fox-1 homolog 2, RRM domain, GST-SBP tag (RBFOX2, Homo sapiens, UniProt O43251-10, residues 100-194)
Technique: RNA Bind-n-Seq
Molecule type: RNA
Matrix: in vitro
Tested at: 365 nM
Setting: natural RNA segment, single round, ends assumed
Relative to: no-protein control
Reading: higher = stronger binding
Constant ends, left off below: GGGAGUUCUACAGUCCGACGAUC … UGGAAUUCUCGGGUGCCAA
Residues (chain): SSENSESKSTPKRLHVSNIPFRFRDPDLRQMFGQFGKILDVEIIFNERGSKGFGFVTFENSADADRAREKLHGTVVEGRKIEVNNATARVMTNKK
Oligonucleotide	RBNS enrichment (R)
UUGCGGUGCUGCCGUCCUUUUGGGUUCUUGAUUUCUGGAUACAUGUAGCUUUGCCAGAUAUGUACUUAGAGAUAUCAACCGUGUUAAUAAGCCCAUUAAUGUGUAACAAC	0.405
UUAAGAAGGACAGUUCAUUGUAGGAAAGCAAUUCUGUACAUGAGUUUAAGCAUUCUUGUUGCAUUGUCUCUGCAGAUUCUAUUUUUGUUUACAAUAUUAAAAUGUAUGUU	0.874
AGAUGCCUUUGAUCAGAGUUUGACUCACAGACAGCAUUUGAGCUCUACAGCUAUUUGAGUCCCUAGACCUUAUUUGAUCAUAUUCAAAAGAUCAUUUCCCAUGCUUGCUU	2.07
AGAUAAUAAGAACAAUUGUCCCGUGAAUGAUUCUAUGAAGCUAUGCAUCUUAGACCUCUUGAGCUGUGAAUUAGCACUAUUUUCUAUGGUUACUUAUUAUCUAUUGUUUU	6.86
GCAGACACACUGAUCUGAACAUCUGGCCCAAGUGAAGCAUGGCAUAUAGUGCCCUUGGAAGAAAAUUAGGCCUCAAAUGACAGUAGCAUUGAAGUGUUUGCUGCAGAGUU	1.3
GUCAGUAUUUUUGUAAGGUUCCAUUUUGUAAAGAGAAUAAUAUUCAAAGACUUUUGUAGCAUACAAAGUGAAAACUUGUAUCUGCGAAACUAUACUUGUAUUAAAUGUGC	0.579
CCUGGUGACCAGGGCAGUAGGCGUAAUUAAGCAACAAUCGAUCUUCCUUCAGGAGAGCUUGUCACUUCCUUCUUAACGCAGUGGUUCCUAUCUCAGGGAUACUGGACUUG	0.219
UAUCACAAACUUUAAAAUGUGAAGAUUCCUGUCUCUCCCGUGGUUUUAAAGGCAAGUGGUGUCCAAGAAACAGAGCAUCCUUCCUGCCGUUCAACGCUCAGCUUUUCCGA	0.534
ACUCCAAACAGUACCUUUGCUUUGUUUGUACAAAAAUGAAGACCUAUAGCCAACACAAAGCAAAUGCCAGAGGUAUUGGAUGAUGCCAUAUUUGAACUGCCAUCUAUUAG	0.696
UUUUCAAAUUGGUGGAAAAGAGAAACUGCAGGAAAACUAUUCAUGUUUGAGUUUUACGCAGUAUAUUUUUUCCACAAAACCUGUAAAGAUUUAAGUUAUUUUAAUUUAUU	1.62
CAAGCCUUUUCUGGAUCCAGCCAUCAAGGACAUGUUUGUGGUGUGAUGCACACUUUUGCAAGCGUGUAAGAUGUUACCUGGUUUGUCUCUUUUGGAAAACAAAAAUCAGA	0.389
AAGCAGGGCAAUGCAGCCAAAUAUUAGAGUUGAUGUGCAGUCUUAGGUCCUUUUUAAUCUGGGGUAUUACAGGCAGUACUUUAAAUCAGAGUCUUCCUGGCCUUUUUCCC	0.475

Study 2
Target: Interferon regulatory factor 5, full length, phosphomimetic (IRF5, Homo sapiens, UniProt Q13568-2, residues 1-514, K96S/S451D/S453D/S456D/S462D)
Technique: protein-binding microarray
Molecule type: double-stranded DNA, one strand shown
Matrix: in vitro
Tested at: 250 nM
Setting: 60-bp whole probe
Added: salmon DNA 0.4 mg/ml
Relative to: random background probes
Reading: higher = stronger binding
Constant ends, left off below: GCCTAGCAC … GTCTTGATTCGCTTGACGCTGCTG
Oligonucleotide	log fluorescence [z-score]
GACCGTTTCGGGTTTCGGGACGTGCTA	7.73
TTAGGGTTCGGGTTTCGGTTAGTGCTA	7.13
AGAAGATAAGCTGCAAGAAAGTGCTAG	0.136
CCAATTCTCTTTTCACTTTCGTGCTAG	4.54
ATTTTTTTTAGTGGATGAAAGTGCTAG	1.17
CTCCCTTGAGGTTTTCTCTGGGTGCTA	-0.434
GACGGTTTCGGATTTCGGGACGTGCTA	5.94
GACGATATCGGGACTGGTGACGTGCTA	0.694
TTAGGTTACGGTTCCGGTTAGTGCTAG	1.19
GACGATTTCAGCTTCGAGACGTGCTAG	0.49
CTAGGTTTCGGTTTCGGTTAGTGCTAG	12
TGAGATATCAGTCTCGATTAGTGCTAG	1.34
GTAGGTTTCGGGTTTCGGTTAGTGCTA	9.76
TTAGGTCTCAGACTGGATTAGTGCTAG	-0.355
TTAGGTATCGAAACTGGGTTAGTGCTA	6.64
TCAGTTTCCAAATTGTCACTGTGCTAG	1.24
GACGATTTCAGTATCGTGACGTGCTAG	2.09
TTAGGACTGGACACTGGGTAAGTGCTA	-0.335
GAAGATGTGTATATGACAATGTGCTAG	-0.0388
TTAGATCTCAGTTTCGCTTAGTGCTAG	7.05
GACGGACTGGATACTGGGGACGTGCTA	-0.514
TTAGATATCGACTATCGGTTAGTGCTA	7.63
GCCGAACTGAGTATCGAGACGTGCTAG	1.74
GACAGTTTCGACTTTCGGGACGTGCTA	9.84

Study 3
Target: Ras GTPase-activating protein-binding protein 1, full length (G3BP1, Homo sapiens, UniProt Q13283)
Chain of UniProt Q13283 (whole entry, looked up): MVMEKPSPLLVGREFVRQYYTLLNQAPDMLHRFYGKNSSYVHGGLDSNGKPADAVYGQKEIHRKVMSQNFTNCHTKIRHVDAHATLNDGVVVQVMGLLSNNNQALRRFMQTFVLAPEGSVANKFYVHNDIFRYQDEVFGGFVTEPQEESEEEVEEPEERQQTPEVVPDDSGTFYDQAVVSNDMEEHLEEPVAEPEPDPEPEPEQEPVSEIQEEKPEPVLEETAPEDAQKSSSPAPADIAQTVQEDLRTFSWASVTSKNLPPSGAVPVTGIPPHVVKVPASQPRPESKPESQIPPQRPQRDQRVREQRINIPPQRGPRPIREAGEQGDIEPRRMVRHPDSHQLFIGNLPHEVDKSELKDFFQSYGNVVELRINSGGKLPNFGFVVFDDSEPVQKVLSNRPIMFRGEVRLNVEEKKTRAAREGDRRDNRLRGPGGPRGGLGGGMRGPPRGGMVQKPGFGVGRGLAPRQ
Technique: RNA Bind-n-Seq
Molecule type: RNA
Matrix: in vitro
Tested at: 200 nM
Setting: whole 134-nt RNA, ends assumed
Added: 150 mM LiCl
Relative to: input library
Reading: higher = stronger binding
Library: 7-deaza-guanosine replaces G
Constant ends, left off below: GGGAGUUCUACAGUCCGACGAUC … UGGAAUUCUCGGGUGUCAAGG
Oligonucleotide	log2 enrichment
UGAAAAGAACUGCUCUCCAUGGAGAGAGUAACUCUGUCCUUAUUAUCGGACCCCGAGGAUCAGGAAAAACUAUGGUAAAAGCUGUUGAUU	-2.87
UCAAGUCCUGUGCUACACAUCGUAUGUACCGAAUCGGUGGUUUUUGGAAAAAGGAAAGUAUUAUGUUACGCCGUUCGGAUCUGCACUUCC	-0.247
AAGUCCUGUGCUACACAUCGUAUGUACCGAAUCGGCCCCCGGCCCCCGGGCCCCCGGAAAGUAUUAUGUUACGCCGUUCGGAUCUGCACU	-0.53
AGUCCUGUGCUACACAUCGUAUGUACCGAAUCGGGAAAAAGGGUGGGUUUUUUUGGGAAAGUAUUAUGUUACGCCGUUCGGAUCUGCACU	-1.35
UAACUUUAGAGGAGGAUCUGAUGGAUAUGGCAGUGGACGUGGAUUUGGGCAUGGCUAUAAUGGGUAUGGAGGAGGACCUGGAGGUGGCAA	-0.592
UGCCAAAGUAUGGCAAGAAAUUGCUCCUGGAAAUACUGAUGCCACCCCAGUAACUCAUGGAACUGAAAGCUCUUGGCAUGAAAUAGCAGC	1.02
UCCUGUGCUACACAUCGUAUGUACCGAAUCGGGCCCCCCGGCCCCCCGGCCCCCCGGGGAAAGUAUUAUGUUACGCCGUUCGGAUCUGCA	0.198
UCCUGUGCUACACAUCGUAUGUACCGAAUCGGGCCCCCCGGGCCCCCCGGGCCCCCCGGGAAAGUAUUAUGUUACGCCGUUCGGAUCUGC	-0.778
CAAGUCCUGUGCUACACAUCGUAUGUACCGAAUCGGGCCGGGGCCGGGGCCGGGGAAAGUAUUAUGUUACGCCGUUCGGAUCUGCACUUC	-0.193
CAAGUCCUGUGCUACACAUCGUAUGUACCGAAUCGGUUUUUUUGGUGGUUUUUGGAAAGUAUUAUGUUACGCCGUUCGGAUCUGCACUUC	-0.426
CUCAAGUCCUGUGCUACACAUCGUAUGUACCGAAUCGGGUUGGGUUGGUUGGGGAAAGUAUUAUGUUACGCCGUUCGGAUCUGCACUUCC	0.372

Study 4
Sequence: B1 (IAA8)
Technique: two-hybrid
Reading: higher = firmer interaction
B1: IAA8 (Arabidopsis thaliana, UniProt Q38826); chain MSYRLLSVDKDELVTSPCLKERNYLGLSDCSSVDSSTIPNVVGKSNLNFKATELRLGLPESQSPERETDFGLLSPRTPDEKLLFPLLPSKDNGSATTGHKNVVSGNKRGFADTWDEFSGVKGSVRPGGGINMMLSPKVKDVSKSIQEERSHAKGGLNNAPAAKAQVVGWPPIRSYRKNTMASSTSKNTDEVDGKPGLGVLFVKVSMDGAPYLRKVDLRTYTSYQQLSSALEKMFSCFTLGQCGLHGAQGRERMSEIKLKDLLHGSEFVLTYEDKDGDWMLVGDVPWEIFTETCQKLKIMKGSDSIGLAPGAVEKSKNKERV
partner	conditions	scale	positive tests
ARF11 500-622 (Arabidopsis thaliana, UniProt Q9ZPY6)	–	relative to: out of 2 tests	0
ARF9 519-638 (Arabidopsis thaliana, UniProt Q9XED8)	weak activation fusion	relative to: out of 4 tests	1
ARF10 575-693 (Arabidopsis thaliana, UniProt Q9SKN5)	–	relative to: out of 4 tests	1
IAA29 (Arabidopsis thaliana, UniProt Q93WC4)	–	relative to: out of 4 tests	0
IAA15 (Arabidopsis thaliana, UniProt Q9C966)	–	relative to: out of 4 tests	4

Repeated from above (study 3):
Oligonucleotide	log2 enrichment
UCAAGUCCUGUGCUACACAUCGUAUGUACCGAAUCGGUGGUUUUUGGAAAAAGGAAAGUAUUAUGUUACGCCGUUCGGAUCUGCACUUCC	-0.247
UCCUGUGCUACACAUCGUAUGUACCGAAUCGGGCCCCCCGGCCCCCCGGCCCCCCGGGGAAAGUAUUAUGUUACGCCGUUCGGAUCUGCA	0.198
UAACUUUAGAGGAGGAUCUGAUGGAUAUGGCAGUGGACGUGGAUUUGGGCAUGGCUAUAAUGGGUAUGGAGGAGGACCUGGAGGUGGCAA	-0.592
CUCAAGUCCUGUGCUACACAUCGUAUGUACCGAAUCGGGUUGGGUUGGUUGGGGAAAGUAUUAUGUUACGCCGUUCGGAUCUGCACUUCC	0.372
UGAAAAGAACUGCUCUCCAUGGAGAGAGUAACUCUGUCCUUAUUAUCGGACCCCGAGGAUCAGGAAAAACUAUGGUAAAAGCUGUUGAUU	-2.87
